Experimental data from different studies.
Protocols differ between the studies behind these lines.
Cell line: A549

The cytotoxic concentration of `Fc1ccc(COc2ccccc2CNCc2ccccc2)cc1` is reported as greater than 12.5 µM.
Under “hypoxic cytotoxicity ratio”, `COc1cc(C2=CCCc3c2ccc(OC)c3OC(C)c2ccc([N+](=O)[O-])s2)cc(OC)c1OC` (centres unmarked) is recorded as 3.5 (4 h anoxic; baseline: oxic IC50 over anoxic IC50).
`Clc1ccc(COc2ccc(CNCc3ccccc3)cc2)cc1` has a cytotoxic concentration of greater than 50 µM.
The EC50 of `CC(=O)OC[C@H]1O[C@@H]([S-])[C@H](OC(C)=O)[C@@H](OC(C)=O)[C@@H]1OC(C)=O.CCP(CC)CC.[Au+]` is reported as 0.1 µM (cytotoxicity; 5 days).
`Fc1ccc(N/N=C/c2ccc(-c3cccc(/C=N/Nc4ccc(F)cc4F)c3)cc2)c(F)c1` — result for cytotoxicity: “not toxic” (15.5 µg/mL).
For `Brc1ccc(COc2ccccc2CNCc2cccnc2)cc1`, the cytotoxic concentration was greater than 12.5 µM.
Under cytotoxicity, `C/C(=N\Nc1ccc(F)cc1)c1ccc(-c2ccc(/C(C)=N/Nc3ccc(F)cc3)cc2)cc1` is recorded as “not toxic” (15.5 µg/mL).
For `COc1cc(C2=CCCc3c2ccc(OC)c3OCc2cnc([N+](=O)[O-])n2C)cc(OC)c1OC`, “hypoxic cytotoxicity ratio” read 1.3 (4 h anoxic; baseline: oxic IC50 over anoxic IC50).
With `CCCCCCCCCC(=O)N[C@@H](Cc1c[nH]c2ccccc12)C(=O)N[C@H](CC(N)=O)C(=O)N[C@@H](CC(=O)O)C(=O)N[C@@H]1C(=O)NCC(=O)N[C@@H](CCCN)C(=O)N[C@@H](CC(=O)O)C(=O)N[C@H](C)C(=O)N[C@@H](CC(=O)O)C(=O)NCC(=O)N[C@H](CO)C(=O)N[C@@H]([C@H](C)CC(=O)O)C(=O)N[C@@H](CC(=O)c2ccccc2N)C(=O)O[C@@H]1C` the EC50 was greater than 64 µM (cytotoxicity, WST-1; human cells; 5 days, 5% FBS DMEM).
The CC50 of `CNC(=O)c1cc(Oc2ccc(NC(=O)Nc3ccc(Cl)c(C(F)(F)F)c3)cc2)ccn1` is reported as 19.9 µM (MTT; 24 h).
`COc1cc(C2=CCCc3c2ccc(OC)c3OC(C)(C)c2ccc([N+](=O)[O-])s2)cc(OC)c1OC` — result for “hypoxic cytotoxicity ratio”: 1.7 (4 h anoxic; baseline: oxic IC50 over anoxic IC50).

A few entries again:
`COc1cc(C2=CCCc3c2ccc(OC)c3OC(C)(C)c2ccc([N+](=O)[O-])s2)cc(OC)c1OC` — result for “hypoxic cytotoxicity ratio”: 1.7 (4 h anoxic; baseline: oxic IC50 over anoxic IC50).
